Results collected from several papers.
Each numbered part is a random draw from the data of one study; scales do not carry over between parts. Changes are numbered by the printed parent chain.

Series 1
Target: RNA binding protein fox-1 homolog 2, RRM domain, GST-SBP tag (RBFOX2, Homo sapiens, UniProt O43251-10, residues 100-194)
Technique: RNA Bind-n-Seq
Molecule type: RNA
Matrix: in vitro
Tested at: 365 nM
Notes: natural RNA segment, single round, ends assumed
Baseline: no-protein control
Direction: higher = stronger binding
All sequences stand within: GGGAGUUCUACAGUCCGACGAUC … UGGAAUUCUCGGGUGCCAA
Strand | RBNS enrichment (R)
GAGAAGGUGGCGCUGCCAGGUGCCCGGGUCUAUUGGAGGCGCCCCAUCUCAGACUUCCUAACACAGCCUGUGUGGAAGGCAGAACAAAGAAUGCAUGCCCAGUCAGAAAU | 22.3
UAUAGUUCUAUUGCCUUAUAUGCAAAAUUGUACCCUGUUGCUCAGAGAAAUUAUUCAUAAGAGAAAAGAAUUCCAAUUAAUUAAAUAUCACAAUAGCAUCCCAGAGAGAC | 0.581
AGAACAUCUCUAUUCUGCAAGACCCCUCUGCCAUGCCAGGGCACGCCCAUUCCAGCUGGAGUCGUGGGGCUGGGCACAGGGGAAUUUUUCCAGAGCUGAGCCUGACGUCU | 0.542
CUCACCAUUAUUCAAGAUUGGGACUCGCUUCCCAGUCGACACUCUGCCCUGCCUGUCAUUGCUGCAAAGAGCUGCUGCUUUGCCAACCUAAGCAAAGAAAAUACGGCUUC | 0.467
AGGUUGCCAAUCUGCUACAAUUAUUUUUCCCACCAAUCUGCUCAAAAUGAUUGUAUAUAGUAUUCUUAAAACCAUGUGUCUUGGUGCAGAAAUAUUGACAAAUGCUGGCC | 0.496

Series 2
Target: Sal-like protein 4, full length isoform B (SALL4, Homo sapiens, UniProt Q9UJQ4-2, residues 1-616)
Technique: universal PBM
Molecule type: double-stranded DNA, one strand shown
Matrix: in vitro
Tested at: not given
Notes: 8-mer, flanks averaged, mean of replicates
Direction: higher = stronger binding
Strand | E-score
AGTCGAAG | 0.0225
ATGTGACC | 0.0222
ATGGCTCG | -0.0846
AAGCCATA | 0.127
AACGGTAT | 0.15
ATCAGATC | 0.0108
CATCCTCC | -0.183

Series 3
Target: CCNB1, cyclin fold, Cln2 fusion (human)
Technique: yeast growth competition, sequencing
Matrix: yeast
Notes: strong parent motif
Baseline: not given
Direction: higher = stronger binding
Starting sequence: MASTL docking peptide (human); PMIAKNLMCELDE
Change | normalised enrichment score
PMIAKNLQCELDE [M8Q] | 0.522
PMIAKNLMCCLDE [E10C] | 0.822
PMIAKNYMCELDE [L7Y] | 0.0366
PMIAKNLMIELDE [C9I] | 1.79
PQIAKNLMCELDE [M2Q] | 2.36
PMIAKCLMCELDE [N6C] | 0.832

Single results of other studies
Molecule | target | assay | system | setting | how to read | quantity | result
PhoQ, residues 284 288 289 292 302 303 SIHLQL | PhoP, residues 12 14 15 18 19 NNFVT (Escherichia coli, UniProt P23836) | Sort-seq, measured: YFP reporter | E. coli | PhoQ-PhoP variant library, added: 10 µM Mg2+ | baseline: high Mg2+ state, higher = stronger signaling | fold induction | 11.4

Repeated from above (series 3):
Change | normalised enrichment score
PMIAKNYMCELDE [L7Y] | 0.0366
